Results pooled from the literature.
Lines come from different studies, so protocols differ. ± gives the spread as reported.
GBA2: Beta-glucosidase (GBA2, Homo sapiens, UniProt Q9HCG7)
Sequence of UniProt Q9HCG7 (whole entry, looked up): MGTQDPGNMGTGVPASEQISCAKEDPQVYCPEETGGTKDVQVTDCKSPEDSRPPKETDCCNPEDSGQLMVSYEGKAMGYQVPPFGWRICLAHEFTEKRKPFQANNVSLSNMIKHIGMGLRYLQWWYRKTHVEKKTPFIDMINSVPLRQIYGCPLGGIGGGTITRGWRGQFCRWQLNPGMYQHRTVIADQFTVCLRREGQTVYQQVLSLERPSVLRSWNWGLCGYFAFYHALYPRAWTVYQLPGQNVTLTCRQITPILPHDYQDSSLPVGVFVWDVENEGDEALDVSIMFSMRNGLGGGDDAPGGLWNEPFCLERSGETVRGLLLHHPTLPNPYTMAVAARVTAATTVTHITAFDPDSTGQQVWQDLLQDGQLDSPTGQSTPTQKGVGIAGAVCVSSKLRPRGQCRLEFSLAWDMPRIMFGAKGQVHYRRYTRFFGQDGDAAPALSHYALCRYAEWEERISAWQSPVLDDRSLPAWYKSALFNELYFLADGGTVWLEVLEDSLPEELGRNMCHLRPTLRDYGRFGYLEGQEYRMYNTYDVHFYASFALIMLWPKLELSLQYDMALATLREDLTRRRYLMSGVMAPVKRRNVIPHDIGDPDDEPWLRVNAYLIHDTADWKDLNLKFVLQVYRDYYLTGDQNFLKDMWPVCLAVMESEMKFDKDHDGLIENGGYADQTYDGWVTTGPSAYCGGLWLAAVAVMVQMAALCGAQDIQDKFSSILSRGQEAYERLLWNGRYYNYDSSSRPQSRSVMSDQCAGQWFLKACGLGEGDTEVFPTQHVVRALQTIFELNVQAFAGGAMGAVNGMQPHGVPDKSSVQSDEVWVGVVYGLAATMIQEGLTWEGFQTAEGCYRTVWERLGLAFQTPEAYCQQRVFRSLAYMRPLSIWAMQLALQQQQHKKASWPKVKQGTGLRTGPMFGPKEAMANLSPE

For `Cc1ncsc1-c1ccc(C(C)NC(=O)C2CC(O)CN2C(=O)C(NC(=O)CCCCCCCCCCN2CCCC(Nc3ncc(Cl)c(Nc4ccccc4S(=O)(=O)C(C)C)n3)C2)C(C)(C)C)cc1` (stereo not drawn), “log2 fold change” read -1.89 (22Rv1; RNA-seq, refers to: SIMC1 mRNA; concentration not given; baseline: DMSO).
`C=CC(=O)Nc1cccc(Cn2ncc3cnc(Nc4cnn(CCOC)c4)nc32)c1` — result for “percent of control”: 11% (PLK4 human; binding, KINOMEscan; 100 nM; lower = stronger binding).
With `COc1cc(O)ccc1CCC(c1ccc(O)cc1)c1cc2c(c(C)c1O)OC(c1ccc(O)cc1)CC2` (mixture of isomers) the DHA level was 120000 ± 23700 pg/mL (human blood; 3 µM, added: A23187).
`C=CC(=O)N1[C@@H](c2ccc3c(c2)OCO3)c2[nH]c3ccccc3c2C[C@H]1C(=O)N1CCN(C)CC1` has a relative co-enrichment of 94% (human cyclin E1 wild type-3xFLAG:CDK2; co-IP with TMT proteomics, refers to: HNRNPH1; concentration not given, P31943; baseline: wild type DMSO).
For `CN1CCCNC(=O)c2cccc(c2)C(=O)NCCCN(C)CCCNc2cccc3c2C(=O)c2cccc(c2C3=O)NCCC1`, “log2 fold change” read -1.33 (SAS; RNA-Seq, refers to: ICE1 mRNA; 1 µM, 6 h; baseline: untreated cells).
With `O=C(CCCCCN1C[C@H](O)[C@@H](O)[C@H](O)[C@H]1CO)NC12CC3CC(CC(C3)C1)C2` the selectivity ratio was 111 (GBA2; inhibitor, 4MU-β-D-glucopyranoside; HEK293T homogenates overexpressing GBA2; baseline: GCS IC50 over GBA2 IC50).
The fold regulation of `CCN(CC)CC(=O)Nc1cccc(-n2cc(-c3ccc4ccc(-c5cn(-c6cccc(NC(=O)CN(CC)CC)c6)nn5)cc4c3)nn2)c1` is reported as -1.11 (RCC4; PCR angiogenesis array, refers to: NRP1; 5 x IC50, 4 h, normoxia; baseline: untreated).
With `CC[n+]1cccc2cc(/C=N/NC(=O)c3cc(C(=O)N/N=C/c4ccc5c(ccc[n+]5CC)c4)ncn3)ccc21` the ΔTm was 3.4 ± 0.3 °C (myc22 MYC G4-DNA parallel; FRET melting; 1 µM, K1 buffer, DNA 0.2 µM, added: ds26 10 µM).
For `COC1CN([C@H]2CC[C@H]([C@@]3(C)Oc4c(Cl)cc(C(=O)NCc5c(SC)cc(C)[nH]c5=O)c(C)c4O3)CC2)C1`, “log2 fold change” read 1.19 (RNA-seq, refers to: NRIP3 mouse homolog; mouse, HT-1376 xenograft, whole blood; dose not given; baseline: vehicle).
The ΔTm of `O=C(N/N=C/c1ccc2c(ccc[n+]2Cc2ccccc2)c1)c1ccc2ccc3ccc(C(=O)N/N=C/c4ccc5c(ccc[n+]5Cc5ccccc5)c4)nc3c2n1` is reported as 19.1 ± 0.7 °C (myc22 MYC G4-DNA parallel; FRET melting; 1 µM, K1 buffer, DNA 0.2 µM, added: ds26 10 µM).
With `OC[C@@H]1[C@@H](O)[C@H](O)[C@@H](O)CN1CCCCCOCc1ccc(-c2ccc(F)cc2)cc1` the selectivity ratio was 25 (GBA2; inhibitor, 4MU-β-D-glucopyranoside; HEK293T homogenates overexpressing GBA2; baseline: GCS IC50 over GBA2 IC50).
`C[n+]1cc(/C=N/NC(=O)c2cc(C(=O)N/N=C/c3cc4ccccc4[n+](C)c3)ncn2)cc2ccccc21` has a ΔTm of 3.7 ± 0.3 °C (myc22 MYC G4-DNA parallel; FRET melting; 1 µM, K1 buffer, DNA 0.2 µM).
With `Nc1ncc(-c2cc(-c3cnn(CC(F)(F)F)c3)ncc2F)nc1C(=O)NC1CNCC(F)C1` (stereo not drawn) the remaining binding was 98% (AKT2; KINOMEscan; 1 µM; baseline: DMSO control).
With `CNS(=O)(=O)Nc1nccc(Cc2c(C)c3ccc(Oc4ncccc4F)cc3oc2=O)c1F` the IC50 was 115 nM (A4/Fuk; cell viability, CellTiter-Glo; 7 days).
The ΔTm of `O=C(N/N=C/c1cc[n+](Cc2ccccc2)c2ccccc12)c1ccc2ccc(C(=O)N/N=C/c3cc[n+](Cc4ccccc4)c4ccccc34)nc2n1` is reported as 16.1 ± 0.7 °C (myc22 MYC G4-DNA parallel; FRET melting; 1 µM, K1 buffer, DNA 0.2 µM).

A few entries again:
For `Cc1ncsc1-c1ccc(C(C)NC(=O)C2CC(O)CN2C(=O)C(NC(=O)CCCCCCCCCCN2CCCC(Nc3ncc(Cl)c(Nc4ccccc4S(=O)(=O)C(C)C)n3)C2)C(C)(C)C)cc1` (stereo not drawn), “log2 fold change” read -1.89 (22Rv1; RNA-seq, refers to: SIMC1 mRNA; concentration not given; baseline: DMSO).
